{"data": "Experimental data collected from several papers", "note": "A part holds a random share of what one study measured.", "chain of UniProt Q9UK32 (whole entry, looked up)": "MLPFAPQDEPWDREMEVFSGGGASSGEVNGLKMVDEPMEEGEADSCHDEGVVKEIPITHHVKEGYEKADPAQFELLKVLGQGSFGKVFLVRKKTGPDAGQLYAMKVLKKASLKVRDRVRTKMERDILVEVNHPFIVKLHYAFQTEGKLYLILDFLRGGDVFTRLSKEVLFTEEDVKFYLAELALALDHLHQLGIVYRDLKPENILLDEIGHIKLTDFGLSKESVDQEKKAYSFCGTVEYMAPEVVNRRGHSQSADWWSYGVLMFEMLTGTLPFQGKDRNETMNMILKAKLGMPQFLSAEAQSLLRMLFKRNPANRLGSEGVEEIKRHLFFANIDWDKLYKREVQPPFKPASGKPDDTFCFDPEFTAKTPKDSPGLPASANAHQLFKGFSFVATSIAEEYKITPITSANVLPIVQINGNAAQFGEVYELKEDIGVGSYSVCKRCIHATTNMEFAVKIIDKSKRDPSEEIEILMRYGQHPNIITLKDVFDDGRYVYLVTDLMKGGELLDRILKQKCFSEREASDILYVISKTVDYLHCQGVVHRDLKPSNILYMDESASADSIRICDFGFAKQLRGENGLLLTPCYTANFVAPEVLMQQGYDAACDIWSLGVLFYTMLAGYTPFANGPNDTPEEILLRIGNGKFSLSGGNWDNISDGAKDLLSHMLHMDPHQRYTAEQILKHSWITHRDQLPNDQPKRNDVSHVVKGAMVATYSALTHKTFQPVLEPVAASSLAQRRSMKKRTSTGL", "chain of UniProt Q13131 (whole entry, looked up)": "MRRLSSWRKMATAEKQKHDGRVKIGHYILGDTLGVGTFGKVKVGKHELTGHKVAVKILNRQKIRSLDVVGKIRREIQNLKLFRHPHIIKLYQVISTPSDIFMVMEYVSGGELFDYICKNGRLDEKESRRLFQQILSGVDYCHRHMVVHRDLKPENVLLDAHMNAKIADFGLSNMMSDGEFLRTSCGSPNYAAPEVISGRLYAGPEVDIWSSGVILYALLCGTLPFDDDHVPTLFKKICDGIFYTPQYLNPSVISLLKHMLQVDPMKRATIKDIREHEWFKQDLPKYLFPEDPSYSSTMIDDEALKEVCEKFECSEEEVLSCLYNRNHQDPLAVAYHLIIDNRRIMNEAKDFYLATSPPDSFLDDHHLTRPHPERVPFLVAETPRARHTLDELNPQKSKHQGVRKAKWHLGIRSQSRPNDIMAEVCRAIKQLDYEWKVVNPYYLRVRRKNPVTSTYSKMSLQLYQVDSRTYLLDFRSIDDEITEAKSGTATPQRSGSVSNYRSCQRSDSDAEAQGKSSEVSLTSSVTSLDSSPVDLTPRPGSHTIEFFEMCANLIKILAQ", "chain of UniProt O15075 (whole entry, looked up)": "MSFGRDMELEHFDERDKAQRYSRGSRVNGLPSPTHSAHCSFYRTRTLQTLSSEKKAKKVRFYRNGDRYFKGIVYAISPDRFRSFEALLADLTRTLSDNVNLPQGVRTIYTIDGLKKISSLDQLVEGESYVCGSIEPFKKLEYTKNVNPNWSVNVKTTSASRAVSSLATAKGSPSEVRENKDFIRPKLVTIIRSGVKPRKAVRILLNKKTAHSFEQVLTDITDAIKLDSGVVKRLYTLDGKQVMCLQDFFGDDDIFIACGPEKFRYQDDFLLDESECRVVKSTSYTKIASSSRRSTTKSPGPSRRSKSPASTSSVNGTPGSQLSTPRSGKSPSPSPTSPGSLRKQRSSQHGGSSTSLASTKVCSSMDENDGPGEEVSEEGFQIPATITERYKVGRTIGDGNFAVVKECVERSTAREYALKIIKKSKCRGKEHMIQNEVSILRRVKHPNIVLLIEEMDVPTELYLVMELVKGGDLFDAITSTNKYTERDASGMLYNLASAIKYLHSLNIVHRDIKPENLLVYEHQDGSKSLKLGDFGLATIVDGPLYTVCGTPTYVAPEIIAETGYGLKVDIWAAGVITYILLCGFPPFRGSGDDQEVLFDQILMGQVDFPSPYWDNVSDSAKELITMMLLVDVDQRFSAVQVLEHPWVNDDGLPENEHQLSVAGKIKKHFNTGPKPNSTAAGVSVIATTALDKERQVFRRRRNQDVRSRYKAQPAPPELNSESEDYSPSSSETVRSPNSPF", "chain of UniProt Q14680 (whole entry, looked up)": "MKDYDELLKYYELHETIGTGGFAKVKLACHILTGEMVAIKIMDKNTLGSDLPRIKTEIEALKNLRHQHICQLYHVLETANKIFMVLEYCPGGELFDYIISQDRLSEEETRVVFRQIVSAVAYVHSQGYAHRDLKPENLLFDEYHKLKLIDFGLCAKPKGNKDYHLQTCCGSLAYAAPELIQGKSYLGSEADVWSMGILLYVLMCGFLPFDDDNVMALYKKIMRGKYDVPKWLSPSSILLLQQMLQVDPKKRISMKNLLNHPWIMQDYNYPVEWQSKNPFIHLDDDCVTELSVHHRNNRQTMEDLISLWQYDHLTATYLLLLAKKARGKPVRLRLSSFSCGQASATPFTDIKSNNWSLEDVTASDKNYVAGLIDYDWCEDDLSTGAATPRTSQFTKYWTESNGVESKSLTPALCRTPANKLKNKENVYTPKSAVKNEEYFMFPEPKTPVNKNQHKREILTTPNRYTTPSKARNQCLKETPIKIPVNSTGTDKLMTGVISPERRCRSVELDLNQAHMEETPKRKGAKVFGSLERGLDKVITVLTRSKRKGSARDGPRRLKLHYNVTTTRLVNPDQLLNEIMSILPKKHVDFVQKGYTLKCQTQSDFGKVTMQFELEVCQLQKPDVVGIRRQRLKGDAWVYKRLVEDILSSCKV", "chain of UniProt Q6ZN16 (whole entry, looked up)": "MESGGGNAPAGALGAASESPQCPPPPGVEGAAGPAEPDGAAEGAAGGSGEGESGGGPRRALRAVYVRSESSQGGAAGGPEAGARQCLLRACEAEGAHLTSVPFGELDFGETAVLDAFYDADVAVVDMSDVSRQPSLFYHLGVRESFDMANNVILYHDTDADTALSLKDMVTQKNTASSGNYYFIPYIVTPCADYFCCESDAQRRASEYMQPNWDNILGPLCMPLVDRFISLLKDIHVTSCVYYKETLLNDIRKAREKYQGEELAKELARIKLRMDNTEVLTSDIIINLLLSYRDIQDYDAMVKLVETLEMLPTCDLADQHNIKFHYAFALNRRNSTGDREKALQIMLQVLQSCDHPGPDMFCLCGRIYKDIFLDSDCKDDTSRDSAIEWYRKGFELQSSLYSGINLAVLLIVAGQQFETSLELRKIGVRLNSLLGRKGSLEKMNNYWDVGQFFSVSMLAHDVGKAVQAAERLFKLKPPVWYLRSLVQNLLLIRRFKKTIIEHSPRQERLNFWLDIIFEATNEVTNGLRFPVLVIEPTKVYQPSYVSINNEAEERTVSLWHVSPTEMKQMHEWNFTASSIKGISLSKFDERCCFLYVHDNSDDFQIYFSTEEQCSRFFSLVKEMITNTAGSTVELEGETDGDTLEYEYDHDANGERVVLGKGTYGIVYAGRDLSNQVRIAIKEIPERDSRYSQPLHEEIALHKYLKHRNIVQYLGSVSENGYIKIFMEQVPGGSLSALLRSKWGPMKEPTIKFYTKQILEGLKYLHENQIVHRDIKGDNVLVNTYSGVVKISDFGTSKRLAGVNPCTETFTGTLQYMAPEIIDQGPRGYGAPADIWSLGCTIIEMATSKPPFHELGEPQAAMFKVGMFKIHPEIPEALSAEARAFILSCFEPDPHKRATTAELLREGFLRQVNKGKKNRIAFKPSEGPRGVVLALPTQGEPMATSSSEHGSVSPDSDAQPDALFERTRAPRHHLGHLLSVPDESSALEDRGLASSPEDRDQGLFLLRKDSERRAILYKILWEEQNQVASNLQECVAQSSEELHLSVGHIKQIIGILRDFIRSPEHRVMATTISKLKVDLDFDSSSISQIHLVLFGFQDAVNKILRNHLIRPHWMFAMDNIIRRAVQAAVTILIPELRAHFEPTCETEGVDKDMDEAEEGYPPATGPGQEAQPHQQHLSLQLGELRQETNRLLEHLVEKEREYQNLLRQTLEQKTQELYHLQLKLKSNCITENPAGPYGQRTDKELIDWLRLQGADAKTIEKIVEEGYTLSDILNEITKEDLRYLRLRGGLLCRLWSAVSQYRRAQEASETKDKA", "chain of UniProt Q86YV6 (whole entry, looked up)": "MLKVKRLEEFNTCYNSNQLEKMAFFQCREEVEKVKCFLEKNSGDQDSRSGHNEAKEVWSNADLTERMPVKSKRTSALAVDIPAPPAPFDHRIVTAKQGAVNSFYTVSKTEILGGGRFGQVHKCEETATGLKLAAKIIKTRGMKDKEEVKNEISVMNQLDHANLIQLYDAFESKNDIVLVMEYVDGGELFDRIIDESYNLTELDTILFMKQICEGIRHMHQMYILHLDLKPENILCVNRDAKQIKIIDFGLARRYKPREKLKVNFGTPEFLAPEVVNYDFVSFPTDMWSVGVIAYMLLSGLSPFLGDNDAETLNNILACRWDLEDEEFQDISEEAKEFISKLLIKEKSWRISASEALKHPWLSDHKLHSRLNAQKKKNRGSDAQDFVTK"}
{"data": "Block 1", "organism": "Sarcocystis neurona", "effect on": "parasite activity", "tested at": "concentration not given"}
{"Structure (SMILES)": "NS(=O)(=O)c1cc2c(cc1C(F)(F)F)NC(Cc1ccccc1)NS2(=O)=O (centres unmarked)", "activity class": "inactive"}
{"Structure (SMILES)": "O=c1ncc(F)c[nH]1", "activity class": "inactive"}
{"Structure (SMILES)": "CN1[C@@H]2CC[C@H]1C[C@@H](OC(c1ccccc1)c1ccccc1)C2.CS(=O)(=O)O", "activity class": "inactive"}
{"Structure (SMILES)": "COc1ccccc1N1CCN(CCCNc2cc(=O)n(C)c(=O)n2C)CC1.Cl", "activity class": "inactive"}
{"Structure (SMILES)": "O=C(N[C@H](CO)[C@H](O)c1ccc([N+](=O)[O-])cc1)C(Cl)Cl", "activity class": "inactive"}
{"Structure (SMILES)": "CC(CN1c2ccccc2Sc2ccccc21)N(C)C.Cl (centres unmarked)", "activity class": "inactive"}
{"Structure (SMILES)": "CC(N/C(=N\\C#N)Nc1ccncc1)C(C)(C)C.O (centres unmarked)", "activity class": "inactive"}
{"Structure (SMILES)": "CCOC(=O)c1ccc(OC(=O)CCCCCN=C(N)N)cc1.CS(=O)(=O)O", "activity class": "inactive"}
{"Structure (SMILES)": "Cc1sc(N)c(C(=O)c2cccc(C(F)(F)F)c2)c1C", "activity class": "inactive"}
{"Structure (SMILES)": "COc1cc(C[C@@H](CO)[C@H](CO)Cc2ccc(O)c(OC)c2)ccc1O", "activity class": "inactive"}
{"Structure (SMILES)": "CC1=C(C/C=C(\\C)CCC[C@H](C)CCC[C@H](C)CCCC(C)C)C(=O)c2ccccc2C1=O", "activity class": "inactive"}
{"Structure (SMILES)": "O=C(O)CCCc1ccccc1", "activity class": "inactive"}
{"Structure (SMILES)": "Nc1ncn([C@@H]2O[C@H](CO)[C@@H](O)[C@H]2O)c(=O)n1", "activity class": "inactive"}
{"Structure (SMILES)": "Cl.O=C(O)/C=C/c1ccc(Cn2ccnc2)cc1", "activity class": "inactive"}
{"Structure (SMILES)": "CNCCC(Oc1ccc(C(F)(F)F)cc1)c1ccccc1.Cl (centres unmarked)", "activity class": "inactive"}
{"Structure (SMILES)": "CC1(C)O[C@@H]2C[C@H]3[C@@H]4CCC5=CC(=O)C=C[C@]5(C)[C@@]4(F)[C@@H](O)C[C@]3(C)[C@]2(C(=O)CO)O1", "activity class": "inactive"}
{"Structure (SMILES)": "CS(=O)(=O)O.O=C(O[C@H]1C[C@H]2CC3C[C@@H](C1)N2CC3=O)c1c[nH]c2ccccc12", "activity class": "inactive"}
{"Structure (SMILES)": "Cc1nccn1CC1CCc2c(c3ccccc3n2C)C1=O.Cl (centres unmarked)", "activity class": "inactive"}
{"data": "Block 2", "SMILES": "Cc1c[nH]c2nccc(Oc3c(F)cc(Nc4cc(Cl)nc(N)n4)cc3F)c12", "technique": "competition with immobilised ligand", "tested at": "0.1 µM"}
{"target": "NEK9 (Homo sapiens, UniProt Q8TD19)", "assay": "cell-free assay", "remaining binding [%]": 96}
{"target": "ULK2 (Homo sapiens, UniProt Q8IYT8)", "assay": "cell-free assay", "remaining binding [%]": 89}
{"target": "TXK (Homo sapiens, UniProt P42681)", "assay": "binding", "remaining binding [%]": 100}
{"target": "PIM1 (Homo sapiens, UniProt P11309)", "assay": "cell-free assay", "remaining binding [%]": 100}
{"target": "PIK3CA (Homo sapiens, UniProt P42336, I800L)", "assay": "cell-free assay", "remaining binding [%]": 90}
{"target": "PRKAA1 (Homo sapiens, UniProt Q13131)", "assay": "cell-free assay", "remaining binding [%]": 100}
{"target": "MAP3K15 (Homo sapiens, UniProt Q6ZN16)", "assay": "cell-free assay", "remaining binding [%]": 94}
{"target": "PRKG2 (Homo sapiens, UniProt Q13237)", "assay": "cell-free assay", "remaining binding [%]": 90}
{"target": "MYLK4 (Homo sapiens, UniProt Q86YV6)", "assay": "cell-free assay", "remaining binding [%]": 100}
{"target": "PLK3 (Homo sapiens, UniProt Q9H4B4)", "assay": "cell-free assay", "remaining binding [%]": 83}
{"target": "PRPF4B (Homo sapiens, UniProt Q13523)", "assay": "cell-free assay", "remaining binding [%]": 89}
{"target": "PTK2 (Homo sapiens, UniProt Q05397)", "assay": "cell-free assay", "remaining binding [%]": 100}
{"target": "ERN1 (Homo sapiens, UniProt O75460)", "assay": "cell-free assay", "remaining binding [%]": 68}
{"target": "CHUK (Homo sapiens, UniProt O15111)", "assay": "cell-free assay", "remaining binding [%]": 66}
{"target": "FLT3 (Homo sapiens, UniProt P36888, R834Q)", "assay": "cell-free assay", "remaining binding [%]": 85}
{"target": "Ribosomal protein S6 kinase alpha-6, N-terminal kinase domain (RPS6KA6, Homo sapiens, UniProt Q9UK32)", "assay": "cell-free assay", "remaining binding [%]": 95}
{"target": "ALK (Homo sapiens, UniProt Q9UM73)", "assay": "cell-free assay", "remaining binding [%]": 95}
{"target": "EPHA2 (Homo sapiens, UniProt P29317)", "assay": "cell-free assay", "remaining binding [%]": 100}
{"target": "GRK1 (Homo sapiens, UniProt Q15835)", "assay": "cell-free assay", "remaining binding [%]": 82}
{"target": "PIK3C2B (Homo sapiens, UniProt O00750)", "assay": "cell-free assay", "remaining binding [%]": 88}
{"target": "MELK (Homo sapiens, UniProt Q14680)", "assay": "cell-free assay", "remaining binding [%]": 57}
{"target": "DCLK1 (Homo sapiens, UniProt O15075)", "assay": "cell-free assay", "remaining binding [%]": 65}
{"data": "Block 3", "Compound": "CC(C)c1nn(-c2c(Cl)cccc2Cl)c2nc(Cc3ccc(OCCO)cc3)[nH]c(=O)c12", "effect on": "enzyme activity", "action": "inhibitor", "tested at": "0.5 µM", "reference": "control"}
{"target": "BLK (Homo sapiens, UniProt P51451)", "remaining activity": "98.8%"}
{"target": "Cyclin-dependent kinase 4, with cyclin D3 (CDK4, Homo sapiens, UniProt P11802)", "remaining activity": "45.6%"}
{"target": "EPHB4 (Homo sapiens, UniProt P54760)", "remaining activity": "90.7%"}
{"target": "EPHB1 (Homo sapiens, UniProt P54762)", "remaining activity": "91.3%"}
{"target": "RPS6KA6 (Homo sapiens, UniProt Q9UK32)", "remaining activity": "84.8%"}
{"target": "RPS6KA5 (Homo sapiens, UniProt O75582)", "remaining activity": "85.6%"}
{"target": "WNK3 (Homo sapiens, UniProt Q9BYP7)", "remaining activity": "96.7%"}
{"target": "STK16 (Homo sapiens, UniProt O75716)", "remaining activity": "83.8%"}
{"target": "HIPK4 (Homo sapiens, UniProt Q8NE63)", "remaining activity": "94.7%"}
{"target": "Cyclin-dependent kinase 6, with cyclin D3 (CDK6, Homo sapiens, UniProt Q00534)", "remaining activity": "46.6%"}
{"target": "TSSK2 (Homo sapiens, UniProt Q96PF2)", "remaining activity": "105%"}
{"data": "Block 4", "target": "Calcium/calmodulin-dependent protein kinase type II subunit alpha (CAMK2A, Homo sapiens, UniProt Q9UQM7)", "effect on": "enzyme activity", "action": "inhibitor", "tested at": "10 µM", "chain of UniProt Q9UQM7 (whole entry, looked up)": "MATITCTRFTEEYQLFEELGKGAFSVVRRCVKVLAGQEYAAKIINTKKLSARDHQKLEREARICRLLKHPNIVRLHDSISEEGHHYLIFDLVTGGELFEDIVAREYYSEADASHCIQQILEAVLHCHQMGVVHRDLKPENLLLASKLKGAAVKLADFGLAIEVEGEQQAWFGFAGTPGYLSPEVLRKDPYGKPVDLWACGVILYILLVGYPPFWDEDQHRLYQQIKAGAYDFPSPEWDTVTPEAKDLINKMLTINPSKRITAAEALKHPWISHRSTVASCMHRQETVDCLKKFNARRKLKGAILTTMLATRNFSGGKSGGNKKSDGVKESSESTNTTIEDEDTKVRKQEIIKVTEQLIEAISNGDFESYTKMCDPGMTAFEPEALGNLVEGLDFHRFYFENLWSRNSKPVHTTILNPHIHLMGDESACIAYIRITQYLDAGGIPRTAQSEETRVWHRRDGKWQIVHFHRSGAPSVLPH"}
{"SMILES": "C/C=C(/C)C(=O)O[C@H]1[C@@H](OC(=O)CC(C)C)c2c(ccc3ccc(=O)oc23)OC1(C)C", "inhibition [%]": -23}
{"SMILES": "COc1c2ccoc2c(OCC=C(C)C)c2oc(=O)ccc12", "inhibition [%]": -4}
{"SMILES": "O=C(O)[C@H]1CC[C@H](O)CC1", "inhibition [%]": -111}
{"SMILES": "CCc1nc(N)nc(N)c1-c1ccc(Cl)cc1", "inhibition [%]": -4}
{"SMILES": "O=C(c1ccc(O)cc1)c1c(O)cc(O)c([C@@H]2O[C@H](CO)[C@@H](O)[C@H](O)[C@H]2O)c1O", "inhibition [%]": 4}
{"SMILES": "CC(C)=CCc1c(O)ccc(C(=O)/C=C/c2ccc(O)cc2)c1O", "inhibition [%]": 46}
{"SMILES": "CCCCCN(C)CCC(O)(P(=O)(O)O)P(=O)(O)O", "inhibition [%]": -11}
{"SMILES": "O=C(/C=C/c1ccc(O)c(O)c1)O[C@@H]1C[C@](O)(C(=O)O)C[C@@H](O)[C@H]1O", "inhibition [%]": 5}
{"note": "Excerpt of the above (block 3):"}
{"target": "STK16 (Homo sapiens, UniProt O75716)", "remaining activity": "83.8%"}
{"target": "EPHB1 (Homo sapiens, UniProt P54762)", "remaining activity": "91.3%"}
{"target": "Cyclin-dependent kinase 6, with cyclin D3 (CDK6, Homo sapiens, UniProt Q00534)", "remaining activity": "46.6%"}
{"target": "HIPK4 (Homo sapiens, UniProt Q8NE63)", "remaining activity": "94.7%"}
{"target": "BLK (Homo sapiens, UniProt P51451)", "remaining activity": "98.8%"}
{"target": "TSSK2 (Homo sapiens, UniProt Q96PF2)", "remaining activity": "105%"}
{"target": "EPHB4 (Homo sapiens, UniProt P54760)", "remaining activity": "90.7%"}
{"target": "Cyclin-dependent kinase 4, with cyclin D3 (CDK4, Homo sapiens, UniProt P11802)", "remaining activity": "45.6%"}
{"target": "RPS6KA5 (Homo sapiens, UniProt O75582)", "remaining activity": "85.6%"}
